Measurements gathered from unrelated publications.
Each numbered part is a random draw from the data of one study; scales do not carry over between parts. Substitutions count along the parent as printed.

Study 1
Target: CCND2, cyclin fold, Cln2 fusion (human)
Method: yeast growth competition, sequencing
Medium: yeast
Setting: weak parent motif
Relative to: not given
Direction: higher = stronger binding
Starting sequence: viral docking peptide; KGVKRKLFAEDSS
`E10V`: “normalised enrichment score” -0.12.
Under “normalised enrichment score”, `E10F` is recorded as 0.182.
Under “normalised enrichment score”, `K4Y` is recorded as -0.523.
Under “normalised enrichment score”, `K6A` is recorded as 0.0251.
Under “normalised enrichment score”, `V3Q` is recorded as -0.11.
`A9Y`: “normalised enrichment score” 0.585.
Under “normalised enrichment score”, `K1A` is recorded as 0.353.
`F8M`: “normalised enrichment score” 0.0495.

Study 2
Target: vanadate, free oxyanion
Method: microfluidic competitive inhibition
Medium: in vitro, cell-free expressed
Concentration: not given
Setting: derived from inhibition constants, unchanged parent 676 nM
Direction: lower = stronger binding
Starting sequence: PafA, mature enzyme, eGFP fusion (Elizabethkingia meningoseptica, UniProt Q9KJX5); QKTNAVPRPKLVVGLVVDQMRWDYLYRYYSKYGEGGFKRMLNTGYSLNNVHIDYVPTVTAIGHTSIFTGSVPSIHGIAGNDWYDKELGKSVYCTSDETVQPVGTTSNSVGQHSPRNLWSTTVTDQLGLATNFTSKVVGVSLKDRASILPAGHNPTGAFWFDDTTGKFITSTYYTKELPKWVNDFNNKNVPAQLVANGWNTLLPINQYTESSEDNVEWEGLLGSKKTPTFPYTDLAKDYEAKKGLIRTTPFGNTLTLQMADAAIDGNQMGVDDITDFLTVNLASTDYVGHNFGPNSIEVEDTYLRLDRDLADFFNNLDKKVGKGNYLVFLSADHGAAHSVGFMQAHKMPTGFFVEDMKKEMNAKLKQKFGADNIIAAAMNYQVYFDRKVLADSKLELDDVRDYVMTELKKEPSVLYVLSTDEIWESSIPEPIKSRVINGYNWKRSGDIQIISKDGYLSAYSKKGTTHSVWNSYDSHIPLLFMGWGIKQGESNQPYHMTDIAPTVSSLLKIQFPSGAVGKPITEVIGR
Under “oxyanion analog dissociation constant”, `A5G` is recorded as 760 nM.
`L202G` — result for “oxyanion analog dissociation constant”: 530 nM.
`L201V`: “oxyanion analog dissociation constant” 620 nM.
`N361G` — result for “oxyanion analog dissociation constant”: 748 nM.
`G103V`: “oxyanion analog dissociation constant” 762 nM.
`Y173V` — result for “oxyanion analog dissociation constant”: 798 nM.
`K363G` — result for “oxyanion analog dissociation constant”: 673 nM.
`Y494V`: “oxyanion analog dissociation constant” 663 nM.

Single results of other studies
`CNC(=O)c1ccc(-c2cnn3ccc(C(=O)N(C)c4ccc(Cl)c(C(=O)O)c4)cc23)cc1` gave a Cmax of 8.68 ng/mL (beagle dog, plasma; oral, 15 mg/kg/day, multiple doses).
For `[N-]=[N+]=CC(=O)CC[C@H](N)C(=O)O`, the lymphocyte count was 0.58 (C57BL/6 CES1-/- mouse, blood; intravenous, 1 mg/kg equivalent).
The viability of `C=CC[C@]1(O)CC[C@H]2[C@@H]3CCC4=CC(=O)CCC4=C3C=C[C@@]21C` is reported as 26% (A-375; 100 µM, 36 h).
